Results of several laboratories.
Compare with care: the assays were run in different laboratories.
Sequence of UniProt Q15569 (whole entry, looked up): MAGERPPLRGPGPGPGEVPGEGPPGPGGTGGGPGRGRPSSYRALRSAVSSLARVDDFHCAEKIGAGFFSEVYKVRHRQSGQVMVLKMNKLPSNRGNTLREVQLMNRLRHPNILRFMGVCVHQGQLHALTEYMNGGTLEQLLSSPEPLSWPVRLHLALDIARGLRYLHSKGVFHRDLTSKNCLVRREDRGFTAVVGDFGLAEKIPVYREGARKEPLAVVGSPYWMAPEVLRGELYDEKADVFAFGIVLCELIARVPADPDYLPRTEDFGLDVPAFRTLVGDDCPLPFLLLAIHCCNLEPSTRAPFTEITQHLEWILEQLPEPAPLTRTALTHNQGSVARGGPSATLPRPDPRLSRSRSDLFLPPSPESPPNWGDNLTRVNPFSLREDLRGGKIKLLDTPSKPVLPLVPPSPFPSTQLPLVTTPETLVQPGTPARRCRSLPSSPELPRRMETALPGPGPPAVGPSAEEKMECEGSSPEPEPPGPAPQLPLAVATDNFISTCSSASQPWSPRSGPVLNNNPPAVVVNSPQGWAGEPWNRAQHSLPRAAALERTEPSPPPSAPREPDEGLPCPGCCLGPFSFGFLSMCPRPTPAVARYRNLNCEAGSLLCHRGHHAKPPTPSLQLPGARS
Sequence of UniProt Q9Y2H1 (whole entry, looked up): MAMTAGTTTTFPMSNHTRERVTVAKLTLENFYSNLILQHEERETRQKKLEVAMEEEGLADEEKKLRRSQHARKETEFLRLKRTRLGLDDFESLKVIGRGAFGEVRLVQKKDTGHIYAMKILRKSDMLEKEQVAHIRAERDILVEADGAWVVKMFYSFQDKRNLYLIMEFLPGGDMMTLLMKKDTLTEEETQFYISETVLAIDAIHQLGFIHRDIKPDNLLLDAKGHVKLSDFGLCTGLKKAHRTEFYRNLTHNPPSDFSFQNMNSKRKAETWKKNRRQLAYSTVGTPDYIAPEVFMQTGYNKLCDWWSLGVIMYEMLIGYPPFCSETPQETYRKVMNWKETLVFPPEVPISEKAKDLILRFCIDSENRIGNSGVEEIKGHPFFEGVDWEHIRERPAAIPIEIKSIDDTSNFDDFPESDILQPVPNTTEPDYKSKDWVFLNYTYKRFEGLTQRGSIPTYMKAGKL
Sequence of UniProt P04629 (whole entry, looked up): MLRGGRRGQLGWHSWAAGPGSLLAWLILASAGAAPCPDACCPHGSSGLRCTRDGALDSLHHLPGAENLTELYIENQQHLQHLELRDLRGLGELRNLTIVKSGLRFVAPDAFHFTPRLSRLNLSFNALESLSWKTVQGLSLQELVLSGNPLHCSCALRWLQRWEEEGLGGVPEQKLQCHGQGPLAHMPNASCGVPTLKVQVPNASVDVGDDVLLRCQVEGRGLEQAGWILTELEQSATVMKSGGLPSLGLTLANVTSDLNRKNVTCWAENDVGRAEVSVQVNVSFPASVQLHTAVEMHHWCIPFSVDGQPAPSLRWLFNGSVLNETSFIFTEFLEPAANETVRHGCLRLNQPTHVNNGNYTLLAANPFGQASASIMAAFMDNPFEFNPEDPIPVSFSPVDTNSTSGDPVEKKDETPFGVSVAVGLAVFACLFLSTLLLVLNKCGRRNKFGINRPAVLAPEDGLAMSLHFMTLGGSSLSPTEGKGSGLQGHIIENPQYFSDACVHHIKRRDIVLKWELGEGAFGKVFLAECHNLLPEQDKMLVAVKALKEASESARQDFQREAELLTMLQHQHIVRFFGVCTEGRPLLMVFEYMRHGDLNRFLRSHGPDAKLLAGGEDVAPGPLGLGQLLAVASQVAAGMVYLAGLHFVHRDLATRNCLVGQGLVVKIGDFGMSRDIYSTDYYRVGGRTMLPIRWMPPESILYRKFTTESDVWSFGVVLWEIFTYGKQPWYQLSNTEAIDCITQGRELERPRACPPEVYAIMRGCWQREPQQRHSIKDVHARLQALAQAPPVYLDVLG
Sequence of UniProt O75716 (whole entry, looked up): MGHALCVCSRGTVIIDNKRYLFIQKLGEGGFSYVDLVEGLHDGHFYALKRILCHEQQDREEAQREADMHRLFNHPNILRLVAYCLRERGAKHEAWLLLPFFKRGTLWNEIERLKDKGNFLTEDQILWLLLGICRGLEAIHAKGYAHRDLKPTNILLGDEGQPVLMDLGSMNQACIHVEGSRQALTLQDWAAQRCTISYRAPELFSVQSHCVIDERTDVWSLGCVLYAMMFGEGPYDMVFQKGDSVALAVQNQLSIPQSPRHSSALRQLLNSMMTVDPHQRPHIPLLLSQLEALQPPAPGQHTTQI
Sequence of UniProt Q9HBY8 (whole entry, looked up): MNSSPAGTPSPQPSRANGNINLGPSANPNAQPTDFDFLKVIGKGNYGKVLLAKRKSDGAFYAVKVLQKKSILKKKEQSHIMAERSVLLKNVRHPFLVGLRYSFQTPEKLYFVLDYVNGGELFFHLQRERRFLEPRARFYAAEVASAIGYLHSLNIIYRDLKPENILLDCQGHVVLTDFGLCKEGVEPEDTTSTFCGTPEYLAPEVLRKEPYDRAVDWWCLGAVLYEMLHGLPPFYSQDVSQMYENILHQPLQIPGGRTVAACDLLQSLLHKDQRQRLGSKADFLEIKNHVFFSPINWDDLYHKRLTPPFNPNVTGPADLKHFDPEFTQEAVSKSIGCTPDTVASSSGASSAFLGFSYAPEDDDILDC
Sequence of UniProt P10721 (whole entry, unmodified, looked up): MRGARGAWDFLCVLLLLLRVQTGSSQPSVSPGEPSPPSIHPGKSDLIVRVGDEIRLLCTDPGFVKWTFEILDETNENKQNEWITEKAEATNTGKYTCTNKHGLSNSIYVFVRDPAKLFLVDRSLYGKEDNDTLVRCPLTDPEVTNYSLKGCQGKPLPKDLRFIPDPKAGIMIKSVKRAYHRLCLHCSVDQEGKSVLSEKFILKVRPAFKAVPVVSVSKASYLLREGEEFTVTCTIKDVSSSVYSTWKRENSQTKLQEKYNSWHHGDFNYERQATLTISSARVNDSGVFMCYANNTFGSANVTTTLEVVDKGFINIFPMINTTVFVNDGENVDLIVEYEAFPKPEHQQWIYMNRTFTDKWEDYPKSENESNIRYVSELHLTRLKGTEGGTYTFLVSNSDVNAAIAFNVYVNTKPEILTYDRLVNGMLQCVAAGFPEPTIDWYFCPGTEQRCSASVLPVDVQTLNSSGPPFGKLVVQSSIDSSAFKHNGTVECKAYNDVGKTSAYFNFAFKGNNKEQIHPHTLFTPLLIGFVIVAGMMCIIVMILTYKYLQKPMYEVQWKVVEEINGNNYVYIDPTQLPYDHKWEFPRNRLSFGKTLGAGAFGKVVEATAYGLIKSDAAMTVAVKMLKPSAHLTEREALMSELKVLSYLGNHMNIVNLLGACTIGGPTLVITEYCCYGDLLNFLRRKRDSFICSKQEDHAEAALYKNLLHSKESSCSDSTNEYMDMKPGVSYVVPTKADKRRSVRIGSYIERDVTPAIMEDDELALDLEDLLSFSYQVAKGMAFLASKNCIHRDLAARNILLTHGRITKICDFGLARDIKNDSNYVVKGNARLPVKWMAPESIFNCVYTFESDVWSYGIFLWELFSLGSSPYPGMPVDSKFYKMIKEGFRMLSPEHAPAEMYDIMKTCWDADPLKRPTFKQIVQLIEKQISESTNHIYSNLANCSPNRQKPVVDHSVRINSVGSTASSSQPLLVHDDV
Sequence of UniProt Q15059 (whole entry, looked up): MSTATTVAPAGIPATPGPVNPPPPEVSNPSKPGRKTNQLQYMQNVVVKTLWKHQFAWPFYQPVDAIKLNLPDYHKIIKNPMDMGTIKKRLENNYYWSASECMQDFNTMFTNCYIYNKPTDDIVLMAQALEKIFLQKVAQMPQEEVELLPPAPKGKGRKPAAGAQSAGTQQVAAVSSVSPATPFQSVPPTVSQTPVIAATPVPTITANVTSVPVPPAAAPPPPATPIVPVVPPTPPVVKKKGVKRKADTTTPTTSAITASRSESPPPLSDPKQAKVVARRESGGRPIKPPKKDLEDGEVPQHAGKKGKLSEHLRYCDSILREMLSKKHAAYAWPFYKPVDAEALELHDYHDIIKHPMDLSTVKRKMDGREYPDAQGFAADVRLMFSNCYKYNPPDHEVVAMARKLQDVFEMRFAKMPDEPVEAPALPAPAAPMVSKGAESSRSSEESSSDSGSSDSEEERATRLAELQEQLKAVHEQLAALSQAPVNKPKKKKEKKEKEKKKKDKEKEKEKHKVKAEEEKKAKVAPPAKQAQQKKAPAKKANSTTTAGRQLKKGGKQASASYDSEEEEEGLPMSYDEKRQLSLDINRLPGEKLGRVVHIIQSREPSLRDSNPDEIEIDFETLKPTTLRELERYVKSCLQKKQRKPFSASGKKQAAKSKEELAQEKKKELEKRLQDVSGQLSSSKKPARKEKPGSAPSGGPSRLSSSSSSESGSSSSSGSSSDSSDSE
Sequence of UniProt Q8TDR2 (whole entry, looked up): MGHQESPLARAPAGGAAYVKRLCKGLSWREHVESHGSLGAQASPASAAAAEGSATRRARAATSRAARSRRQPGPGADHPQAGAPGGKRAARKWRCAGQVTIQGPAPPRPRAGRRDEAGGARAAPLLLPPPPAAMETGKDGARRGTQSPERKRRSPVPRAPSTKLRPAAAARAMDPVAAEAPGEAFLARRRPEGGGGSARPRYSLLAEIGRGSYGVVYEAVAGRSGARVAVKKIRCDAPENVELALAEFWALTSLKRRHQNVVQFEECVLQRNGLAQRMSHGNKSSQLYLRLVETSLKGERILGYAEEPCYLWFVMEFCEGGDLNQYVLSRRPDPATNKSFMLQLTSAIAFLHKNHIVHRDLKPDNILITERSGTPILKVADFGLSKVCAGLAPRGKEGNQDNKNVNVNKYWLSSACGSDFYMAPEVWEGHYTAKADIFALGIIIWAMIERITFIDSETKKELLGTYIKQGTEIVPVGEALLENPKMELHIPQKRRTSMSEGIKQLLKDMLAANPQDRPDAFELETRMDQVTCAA

CCCCC(=O)Nc1ccc(-c2ccc3ncn(CCC)c(=O)c3c2)cn1 — remaining binding (Serine/threonine-protein kinase 38-like (STK38L, Homo sapiens, UniProt Q9Y2H1); binding, competition with immobilised ligand; 0.5 µM): 100%
NS(=O)(=O)c1ccc(Nc2nc(-c3ccc(F)cc3)c3ccccc3n2)cc1 — remaining binding (Bromodomain-containing protein 3, BD2 (BRD3, Homo sapiens, UniProt Q15059); binding, competition with immobilised ligand; 1 µM): 3%
COc1ccc2oc(-c3ccc4nc(N)oc4c3)c/c(=N\c3ccccc3NC(=O)CCN)c2c1 — remaining binding (Epithelial discoidin domain-containing receptor 1 (DDR1, Homo sapiens, UniProt Q08345); binding; 1 µM): 75%
C[C@@H](c1ccc(-n2cnc3c(N)ncnc32)cc1)N1CCc2nn(C)c(Cc3ccccc3)c2C1=O — remaining binding (High affinity nerve growth factor receptor (NTRK1, Homo sapiens, UniProt P04629); binding, competition with immobilised ligand; 0.1 µM): 6.4%
COc1cc(-c2cncc3c2CN(C)Cc2cc(N4CCNCC4)ccc2-3)cc(OC)c1OC — remaining activity (Serine/threonine-protein kinase 33 (STK33, Homo sapiens, UniProt Q9BYT3); enzyme activity, inhibitor; 1 µM): 111%
C[C@]1(O)CCCN(c2nc(Nc3ccc(S(=O)(=O)N[C@H]4CC[C@H](CN5CCN(c6ccc(C7CCC(=O)NC7=O)cc6F)CC5)CC4)cc3F)ncc2C(F)(F)F)C1 (stereo partly shown) — remaining binding (Cyclin-dependent kinase 2 (CDK2, Homo sapiens, UniProt P24941); binding, competition with immobilised ligand; 1 µM): 33%
FC(F)(F)Oc1cccc(-c2cnc3ccc(-c4ccncc4)nn23)c1 — remaining binding (Dual specificity testis-specific protein kinase 1 (TESK1, Homo sapiens, UniProt Q15569); binding, competition with immobilised ligand; 5 µM): 54%
Nc1ccn([C@@H]2O[C@H](CO)[C@@H](O)C2(F)F)c(=O)n1 — viability (MCF7; cell growth or viability, MTT; 1.25 µg/mL, 48 h): 55.8%
C=CC(=O)N1CCC(COCC(=O)N2CCN(c3nc(-c4cnc(N)nc4C(F)F)nc(N4CCOC[C@@H]4C)n3)CC2)CC1 — remaining binding (Mitogen-activated protein kinase 15 (MAPK15, Homo sapiens, UniProt Q8TD08); binding, competition with immobilised ligand; 1 µM): 100%
CNc1ncc2c(/C=C/C(=O)N3CCC(OC)CC3)nn(Cc3cccc(C(F)(F)F)c3)c2n1 — remaining activity (Serine/threonine-protein kinase Sgk2 (SGK2, Homo sapiens, UniProt Q9HBY8); enzyme activity, inhibitor, radiometric; 1 µM): 104%
Cc1cc([C@@H](C)Nc2ccccc2C(=O)O)c2nc(N3CCC(F)(F)CC3)c(C#N)c(=O)n2c1 — remaining binding (Serine/threonine-protein kinase ULK2 (ULK2, Homo sapiens, UniProt Q8IYT8); binding, competition with immobilised ligand; 10 µM): 55%
COc1cccc(-c2n[nH]c(SCc3ccccn3)n2)c1OC — concentration (female Sprague-Dawley rat, plasma; oral, 10 mg/kg, 4 h, single dose): 362 ng/mL
CNS(=O)(=O)c1ccc(Nc2ncc(C(F)(F)F)c(N3CCC[C@](C)(O)C3)n2)c(C)c1 — remaining binding (Serine/threonine-protein kinase 16 (STK16, Homo sapiens, UniProt O75716); binding, competition with immobilised ligand; 1 µM): 88%
CN(c1nccc(-c2cnn3ncccc23)n1)C1CC1 — remaining binding (Serine/threonine-protein kinase 35 (STK35, Homo sapiens, UniProt Q8TDR2); binding; 1 µM): 100%
C1=C/COCc2cc(ccc2OCCN2CCCC2)Nc2nccc(n2)-c2cccc(c2)COC/1 — remaining binding (Serine/threonine-protein kinase PAK 6 (PAK6, Homo sapiens, UniProt Q9NQU5); binding; 0.1 µM): 90%
Nc1ncnc2occ(-c3ccc(NC(=O)Nc4cc(C(F)(F)F)ccc4F)cc3)c12 — remaining signal (Mast/stem cell growth factor receptor Kit (KIT, Homo sapiens, UniProt P10721, D816H); cell-free assay, inhibitor; 20 µM): 2.8%

Excerpt of the above:
CNc1ncc2c(/C=C/C(=O)N3CCC(OC)CC3)nn(Cc3cccc(C(F)(F)F)c3)c2n1 — remaining activity (Serine/threonine-protein kinase Sgk2 (SGK2, Homo sapiens, UniProt Q9HBY8); enzyme activity, inhibitor, radiometric; 1 µM): 104%
Cc1cc([C@@H](C)Nc2ccccc2C(=O)O)c2nc(N3CCC(F)(F)CC3)c(C#N)c(=O)n2c1 — remaining binding (Serine/threonine-protein kinase ULK2 (ULK2, Homo sapiens, UniProt Q8IYT8); binding, competition with immobilised ligand; 10 µM): 55%
